Results gathered from unrelated publications.
Protocols differ between the studies behind these lines. Numbers after ± are the reported error.

SMILES | assay | system | conditions | how to read | quantity | result
CCCCC[C@@H]1OC(=O)[C@@H](C)N(C)C(=O)[C@H](CCCCC)N(C)C(=O)[C@@H](C)N(C)C(=O)[C@H](CCCCC)N(C)C(=O)[C@@H](C)N(C)C(=O)[C@H](CCCCC)OC(=O)[C@@H](C)N(C)C1=O | PAMPA |  | 500 µM, pH 7.4, UV/ELSD/MS detection |  | log Papp | -5.35
O=C1NC2(CC2)COc2ncc(F)cc2[C@H]2COCCN2c2ccn3ncc1c3n2 |  | Sprague-Dawley rat, female, blood | oral, 10 mg/kg/day, 4 weeks, end of recovery, subacute toxicity |  | mean corpuscular haemoglobin | 18.4 ± 0.7 pg
CC(C)[C@@H]1NC(=O)CNC(=O)[C@H](CC(N)=O)NC(=O)[C@H](CCCNC(=N)N)NC(=O)[C@H](Cc2ccc(O)cc2)NC(=O)[C@H](C(C)C)NC(=O)[C@@H](NC(=O)[C@@H](NC(=O)[C@H](CC(N)=O)NC(=O)[C@H](Cc2c[nH]c3ccccc23)NC(=O)[C@H](C)NC(=O)[C@H](Cc2ccccc2)NC(=O)CNC(=O)[C@H](CCCCN)NC(=O)[C@H](Cc2ccccc2)NC(=O)[C@H](Cc2ccccc2)NC(=O)[C@H](CCCCN)NC(=O)OCC2c3ccccc3-c3ccccc32)C(C)C)CSSC[C@@H](C(=O)N[C@@H](Cc2c[nH]cn2)C(=O)N[C@@H](CCCNC(=N)N)C(=O)N[C@@H](CCCNC(=N)N)C(=O)N[C@@H](C)C(=O)N[C@@H](CC(N)=O)C(N)=O)NC(=O)[C@H](C(C)C)NC(=O)[C@H](CCCNC(=N)N)NC1=O |  | ICR mouse | ip, 5 mg/kg | direction not given | stimulus response score | 0
N=C(N)NCCC[C@H](NC(=O)[C@H](CCCNC(=N)N)NC(=O)[C@H](CCCNC(=N)N)NC(=O)[C@H](CCC(N)=O)NC(=O)[C@H](CCCNC(=N)N)NC(=O)[C@H](CCCNC(=N)N)NC(=O)[C@H](CCCCN)NC(=O)[C@H](CCCCN)NC(=O)[C@H](CCCNC(=N)N)NC(=O)CNC(=O)[C@H](Cc1ccc(O)cc1)NC(=O)[C@H](Cc1ccccc1)NC(=O)[C@H](Cc1ccccc1)NC(=O)[C@H](Cc1ccccc1)NC(=O)OCC1c2ccccc2-c2ccccc21)C(=O)O |  | C57BL/6 mice | intraperitoneal, 20 mg/kg, 24 h | direction not given | health score | 5
CCN(Cc1ccccc1)C(=O)CCc1nc(CN2CCN(C(=O)Cc3ccc(OC)c(OC)c3)CC2)no1 |  | mouse | intraperitoneal, up to 150 mg/kg |  | vital signs | no effect
CCCC[C@@H]1NC(=O)[C@H](Cc2ccc(O)cc2)NC(=O)[C@@H]2CCCN2C(=O)[C@H](CC(=O)O)NC(=O)[C@H](C)NC(=O)[C@H](Cc2ccccc2)NC(=O)[C@@H]2CSCCC(=O)N3CN(CN(C3)C(=O)CCSC[C@@H](C(=O)N[C@@H](C)C(N)=O)NC1=O)C(=O)CCSC[C@H](NC(C)=O)C(=O)N[C@@H](CC(C)(C)C)C(=O)N1CCC[C@H]1C(=O)N[C@@H](CCC(=O)O)C(=O)N[C@H](CCCCNC(=O)CCc1cn(CCOCCOCCOCCN(CCOCCOCCOCCC(=O)N[C@H]3CSCCC(=O)N4CN5CN(C4)C(=O)CCSC[C@H](NC(=O)[C@@H](CC(=O)O)NC(=O)[C@H](Cc4cccc6ccccc46)NC(=O)[C@@H]4CCCN4C3=O)C(=O)N[C@@H](CCSC)C(=O)N[C@@H](CCCCNC(=N)N)C(=O)N[C@@H](CC(=O)O)C(=O)N[C@@H](Cc3c[nH]c4ccccc34)C(=O)N[C@@H](CO)C(=O)N[C@@H]([C@@H](C)O)C(=O)N3CCC[C@H]3C(=O)N3C[C@H](O)C[C@H]3C(=O)N[C@@H](Cc3c[nH]c4ccccc34)C(=O)N[C@H](C(N)=O)CSCCC5=O)CCOCCOCCOCCn3cc(CCC(=O)NCCCC[C@H]4NC(=O)[C@H](CCC(=O)O)NC(=O)[C@@H]5CCCN5C(=O)[C@H](CC(C)(C)C)NC(=O)[C@@H](NC(C)=O)CSCCC(=O)N5CN6CN(C5)C(=O)CCSC[C@H](NC(=O)[C@H](Cc5ccc(O)cc5)NC(=O)[C@@H]5CCCN5C4=O)C(=O)N[C@@H](Cc4ccccc4)C(=O)N[C@@H](C)C(=O)N[C@@H](CC(=O)O)C(=O)N4CCC[C@H]4C(=O)N[C@@H](Cc4ccc(O)cc4)C(=O)N[C@@H](CCCC)C(=O)N[C@H](C(=O)N[C@@H](C)C(N)=O)CSCCC6=O)nn3)nn1)C(=O)N1CCC[C@H]1C(=O)N[C@@H](Cc1ccc(O)cc1)C(=O)N2 |  | cynomolgus monkey |  |  | half-life | 6.2 ± 2.5 h
CCN(CC)CCOc1ccc(-c2nnn(Cc3ccc(OC)cc3)c2N)cc1 | metabolic stability | dog, plasma |  |  | half-life | > 6.21 h
CC[C@H](C)[C@H](NC(=O)[C@H](CCCCN)NC(=O)CNC(=O)[C@H](CC(C)C)NC(=O)[C@H](Cc1ccccc1)NC(=O)[C@H](CCCCN)NC(=O)[C@H](CO)NC(=O)[C@H](Cc1ccccc1)NC(=O)[C@H](Cc1c[nH]c2ccccc12)NC(=O)[C@H](CCC(N)=O)NC(=O)[C@@H](NC(=O)[C@H](Cc1ccccc1)NC(=O)CCCCCNC(=O)CN1CCN(CC(=O)O)CCN(CC(=O)O)CCN(CC(=O)O)CC1)C(C)C)C(=O)N[C@@H](CCC(=O)O)C(=O)N1CCC[C@H]1C(=O)N[C@@H](CC(=O)O)C(=O)N[C@H](C(=O)N[C@@H](CO)C(=O)N[C@@H](CCC(N)=O)C(=O)N[C@H](C(=O)N[C@@H](CCC(N)=O)C(=O)N[C@@H](CC(=O)O)C(=O)N1CCC[C@H]1C(=O)N[C@@H](CC(N)=O)C(=O)N[C@@H](CC(=O)O)C(=O)N[C@@H](CCC(N)=O)C(=O)N[C@@H](Cc1ccc(O)cc1)C(=O)N[C@@H](CCC(=O)O)C(=O)N1CCC[C@H]1C(=O)N[C@@H](Cc1ccccc1)C(=O)O)C(C)C)C(C)C [copper-64 labelled] | dynamic PET | mouse, CT26 tumour, untreated, tumour | intravenous, 100 µCi/mouse, 3100 s |  | SUVmean | 1.46 SUV
CN1Cc2cc(Cl)ccc2-n2c(nnc2C2CCN(c3cccc([18F])n3)CC2)C1 |  | C57BL/6 mouse male, thymus | intravenous, 3.7 MBq, 1 min |  | tissue uptake | 4.51 ± 1.63 %ID/g
C(#Cc1cncc(OC[C@@H]2CCN2)c1)c1ccccc1 |  | male Sprague-Dawley rat, plasma | oral, 75 mg/kg, 9 h |  | concentration | 0.21 µg/mL
N=C(N)NCCC[C@@H](NC(=O)[C@H](N)Cc1c[nH]c2ccccc12)C(=O)N[C@H](CCCCN)C(=O)N[C@H](Cc1c[nH]c2ccccc12)C(=O)N[C@H](CCCNC(=N)N)C(=O)N[C@H](CCCCN)C(=O)N[C@H](Cc1c[nH]c2ccccc12)C(=O)N[C@H](CCCNC(=N)N)C(=O)N[C@H](CCCCN)C(=O)N[C@H](Cc1c[nH]c2ccccc12)C(=O)N[C@H](CCCNC(=N)N)C(=O)N[C@H](CCCCN)C(N)=O |  | mouse | intraperitoneal, 30 mg/kg single dose, day 3 |  | survival | 100%
N#[11C]c1ccc(-c2csc(NN=C3CCCC3)n2)cc1 |  | C57BL/6 mouse, male | intravenous, 3 MBq, 30 min |  | uptake in testis | 1.07 ± 0.25 %ID/g
Cc1ccccc1-c1ccc(-c2nc(-c3ccc(CN(C)CCCC(=O)O)c([18F])c3)no2)cc1C(F)(F)F |  | rat, blood | 1 h |  | tracer uptake | 0.06 %ID/g

A few entries again:
SMILES | assay | system | conditions | how to read | quantity | result
O=C1NC2(CC2)COc2ncc(F)cc2[C@H]2COCCN2c2ccn3ncc1c3n2 |  | Sprague-Dawley rat, female, blood | oral, 10 mg/kg/day, 4 weeks, end of recovery, subacute toxicity |  | mean corpuscular haemoglobin | 18.4 ± 0.7 pg
CC(C)[C@@H]1NC(=O)CNC(=O)[C@H](CC(N)=O)NC(=O)[C@H](CCCNC(=N)N)NC(=O)[C@H](Cc2ccc(O)cc2)NC(=O)[C@H](C(C)C)NC(=O)[C@@H](NC(=O)[C@@H](NC(=O)[C@H](CC(N)=O)NC(=O)[C@H](Cc2c[nH]c3ccccc23)NC(=O)[C@H](C)NC(=O)[C@H](Cc2ccccc2)NC(=O)CNC(=O)[C@H](CCCCN)NC(=O)[C@H](Cc2ccccc2)NC(=O)[C@H](Cc2ccccc2)NC(=O)[C@H](CCCCN)NC(=O)OCC2c3ccccc3-c3ccccc32)C(C)C)CSSC[C@@H](C(=O)N[C@@H](Cc2c[nH]cn2)C(=O)N[C@@H](CCCNC(=N)N)C(=O)N[C@@H](CCCNC(=N)N)C(=O)N[C@@H](C)C(=O)N[C@@H](CC(N)=O)C(N)=O)NC(=O)[C@H](C(C)C)NC(=O)[C@H](CCCNC(=N)N)NC1=O |  | ICR mouse | ip, 5 mg/kg | direction not given | stimulus response score | 0
